Measured values pooled from the literature.
Lines come from different studies, so protocols differ.
Organism: Pseudomonas aeruginosa

SMILES | test | test system | conditions | scale | endpoint | value
O=C(O)CN(CC(=O)O)CP(=O)(O)O | – | IMP-7 producer | 32 µg/mL, together with: meropenem | baseline: meropenem alone | fold MIC reduction | 4
Nc1nc2ccc(S(=O)(=O)c3cccnc3)cc2s1 | swarming area, modified FAB agar | PA14-lux | 200 µM, 24 h | baseline: DMSO vehicle | inhibition | -27.5%
CC(N)C(O)CCCCCCCCCCCCCCC(=O)CCCCCCCC(O)C(C)N (stereo not drawn) | resazurin | ATCC 27853 | 50 µM | – | growth inhibition | 3%
CC(C)C[C@@H]1NC(=O)[C@H](CCCCN)NC(=O)CNC(=O)[C@H]2CCCN2C(=O)[C@H](CCCCN)NC(=O)[C@H](CC(C)C)NC(=O)[C@H](CCCCN)NC(=O)[C@H](CC(C)C)NC(=O)[C@H](CCCCN)NC(=O)C(N)CCC=CCCCC(C(N)=O)NC(=O)[C@H](CCCCN)NC(=O)[C@H](CC(C)C)NC(=O)[C@H](CCCCN)NC1=O (stereo partly drawn) | broth microdilution | ATCC 9027, Mueller-Hinton broth | 18 h, 37 °C | – | MIC | 8 µM
Nc1nc2ccc(C(F)(F)F)cc2s1 | swarming area, modified FAB agar | PA14-lux | 200 µM, 24 h | baseline: DMSO vehicle | inhibition | 33.5%
CN[C@H](CC(C)C)C(=O)N[C@H]1C(=O)N[C@@H](CC(N)=O)C(=O)N[C@H]2C(=O)N[C@H]3C(=O)N[C@H](C(=O)N[C@H](C(=O)N[C@@H](CCCNC(=N)N)C(N)=O)c4cc(O)cc(O)c4-c4cc3ccc4O)[C@H](O)c3ccc(c(Cl)c3)Oc3cc2cc(c3O[C@@H]2O[C@H](CO)[C@@H](O)[C@H](O)[C@H]2O[C@H]2C[C@](C)(NCc3ccc(OCc4cn(CC(=O)N[C@H](C(=O)N[C@@H](CCN)C(=O)N[C@H]5CCNC(=O)[C@H]([C@@H](C)O)NC(=O)[C@H](CCN)NC(=O)[C@H](CCN)NC(=O)[C@H](CC(C)C)NC(=O)[C@@H](CC(C)C)NC(=O)[C@H](CCN)NC5=O)[C@@H](C)O)nn4)c(OC)c3)[C@H](O)[C@H](C)O2)Oc2ccc(cc2Cl)[C@H]1O | broth microdilution | ATCC 10145, cation-adjusted Mueller-Hinton broth | – | – | MIC | 11 µM
CC(C)[C@H]1NC(=O)CNC(=O)[C@H](CO)NC(=O)[C@@H](Cc2c(-c3ccc(-c4ccc5ccccc5c4)cc3)[nH]c3ccccc23)NC(=O)[C@@H](CO)NC(=O)[C@@H](C(C)C)NC(=O)[C@H](Cc2ccccc2)NC1=O | broth dilution | – | – | – | MIC90 | > 50 µM
C#CCOc1ccc(CN[C@@]2(C)C[C@H](O[C@H]3[C@H](Oc4c5cc6cc4Oc4ccc(cc4Cl)[C@@H](O)[C@@H](NC(=O)[C@@H](CC(C)C)NC)C(=O)N[C@@H](CC(N)=O)C(=O)N[C@H]6C(=O)N[C@H]4C(=O)N[C@H](C(=O)N[C@H](C(=O)N[C@@H](CCCNC(=N)N)C(N)=O)c6cc(O)cc(O)c6-c6cc4ccc6O)[C@H](O)c4ccc(c(Cl)c4)O5)O[C@H](CO)[C@@H](O)[C@@H]3O)O[C@@H](C)[C@H]2O)cc1OC | broth microdilution | ATCC 35218, cation-adjusted Mueller-Hinton broth | – | – | MIC | 4 µM
CC[C@H](C)[C@H](NC(=O)[C@H](CCCNC(=N)N)NC(=O)[C@H](CO)NC(=O)[C@H](Cc1ccc(O)cc1)NC(=O)[C@@H](NC(=O)[C@@H](NC(=O)[C@H](C)NC(=O)CNC(=O)[C@H](CCCCN)NC(=O)[C@H](CCCCN)NC(=O)CCNC(=O)CCCCCNC(=O)[C@H](CCCNC(=N)N)NC(=O)CCCCCNC(=O)[C@H](CCCNC(=N)N)NC(=O)[C@H](CCCNC(=N)N)NC(=O)CCCCCNC(=O)[C@H](CCCNC(=N)N)NC(=O)[C@H](CCCNC(=N)N)NC(=O)CCCCCNC(=O)[C@H](CCCNC(=N)N)NC(=O)[C@H](CCCNC(=N)N)NC(=O)CCCCCNC(=O)[C@@H](N)CCCNC(=N)N)C(C)C)[C@@H](C)O)C(=O)N[C@@H](CO)C(=O)NCC(=O)N[C@@H](CCC(N)=O)C(=O)N[C@@H](Cc1ccc(O)cc1)C(=O)N[C@@H](CCCCN)C(=O)O | biofilm formation, crystal violet staining | ATCC 27853, Mueller-Hinton broth | 24 h, 37 °C, polypropylene plate | – | MBIC50 | 48 µM
CC(C)[C@H]1NC(=O)[C@H](Cc2ccccc2)NC(=O)[C@@H](C(C)C)NC(=O)[C@@H](C)NC(=O)[C@H](CO)NC(=O)[C@@H](Cc2c(-c3ccc(-c4ccccc4)c4ccccc34)[nH]c3ccccc23)NC(=O)[C@@H](CO)NC1=O | broth dilution | – | – | – | MIC90 | > 50 µM
Nc1nc2ccc(Oc3ccncc3)cc2s1 | swarming area, modified FAB agar | PA14-lux | 200 µM, 24 h | baseline: DMSO vehicle | inhibition | 40%
CC(C)C[C@H](NC(=O)[C@H](CC(C)C)NC(=O)[C@H](CCCCN)NC(=O)[C@H](Cc1ccccc1)NC(=O)[C@@H](NC(=O)[C@H](CCCNC(=N)N)NC(=O)[C@@H](N)CCCCN)C(C)C)C(=O)N[C@@H](CCCCN)C(=O)N[C@@H](CCCNC(=N)N)C(=O)N[C@@H](Cc1ccc(O)cc1)C(=O)N[C@@H](Cc1c[nH]c2ccccc12)C(=O)N[C@@H](CCCNC(=N)N)C(=O)N[C@@H](CCC(N)=O)C(=O)N[C@@H](CC(C)C)C(=O)N[C@@H](CCCCN)C(=O)N[C@@H](CCCCN)C(=O)N1CCC[C@H]1C(=O)N[C@H](C(=O)N[C@@H](CCCNC(=N)N)C(=O)NCCOCCOCC(=O)O)C(C)C | DCFH-DA fluorescence | – | concentration not given | baseline: untreated | ROS level | 10 to 12 fold
NCc1ccc(S(=O)(=O)c2ccc3nc(N)sc3c2)cn1 | swarming area | PA14-lux | 200 µM, 24 h | baseline: DMSO | swarming inhibition | 91.5%
CC(C)[C@H]1NC(=O)[C@H](Cc2ccccc2)NC(=O)[C@@H](C(C)C)NC(=O)[C@@H](C)NC(=O)[C@H](CO)NC(=O)[C@@H](Cc2c(-c3ccc(-c4ccccc4)c(F)c3)[nH]c3ccccc23)NC(=O)[C@@H](CO)NC1=O | broth dilution | – | – | – | MIC90 | > 50 µM
CC(C)C[C@H](NC(=O)[C@H](CCN)NC(=O)[C@H](CCN)NC(=O)[C@@H](Cc1ccccc1)NC(=O)[C@H](CC(C)C)NC(=O)[C@H](CCN)NC(=O)[C@H](CCN)NC(=O)[C@@H](CCN)NC(=O)CCS)C(N)=O | – | PAO1 | 24 h, 37 °C | – | MBC | > 128 µM
C#CCNC(=O)[C@H]1NC(=O)[C@H]2NC(=O)[C@H](NC(=O)[C@@H]3NC(=O)[C@H](CC(N)=O)NC(=O)[C@H](NC(=O)[C@@H](CC(C)C)NC)[C@H](O)c4ccc(c(Cl)c4)Oc4cc3cc(c4O[C@@H]3O[C@H](CO)[C@@H](O)[C@H](O)[C@H]3O[C@H]3C[C@](C)(N)[C@H](O)[C@H](C)O3)Oc3ccc(cc3Cl)[C@H]2O)c2ccc(O)c(c2)-c2c(O)cc(O)cc21 | broth microdilution | ATCC 27853, cation-adjusted Mueller-Hinton broth | 18 to 20 h, 37 °C, 0.002% polysorbate 80 | – | MIC | > 128 µg/mL
CCCC(=O)C#Cc1ccc(F)c(F)c1 | – | – | 10 µM, 24 h | baseline: untreated | pyocyanin production | 67%
CCC(=O)OCCSC[C@H](N)C(=O)N[C@H](CCN)C(=O)N[C@@H](CCN)C(=O)N[C@@H](CCN)C(=O)N[C@@H](CC(C)C)C(=O)N[C@H](Cc1ccccc1)C(=O)N[C@@H](CCN)C(=O)N[C@@H](CCN)C(=O)N[C@@H](CC(C)C)C(N)=O | – | PAO1 | 24 h, 37 °C | – | MBC | > 128 µM
Cc1nc2ccc(N)cc2s1 | swarming area, modified FAB agar | PA14-lux | 200 µM, 24 h | baseline: DMSO vehicle | inhibition | 11.9%
CC(C)[C@H]1NC(=O)[C@H](Cc2ccccc2)NC(=O)[C@@H](C(C)C)NC(=O)[C@@H](C)NC(=O)[C@H](C)NC(=O)[C@@H](Cc2c(-c3ccc(-c4ccc5ccccc5c4)cc3)[nH]c3ccccc23)NC(=O)[C@@H](CO)NC1=O | broth dilution | – | – | – | MIC90 | > 50 µM
CC(C)C[C@@H]1NC(=O)[C@@H](CC(C)C)NC(=O)[C@H](CCN)NC(=O)[C@@H](NC(=O)[C@H](CCN)NC(=O)[C@@H](NC(=O)CCCCN=[N+]=[N-])[C@@H](C)O)CCNC(=O)[C@H]([C@@H](C)O)NC(=O)[C@H](CCN)NC(=O)[C@H](CCN)NC1=O | broth microdilution | ATCC 10145, cation-adjusted Mueller-Hinton broth | – | – | MIC | 4 µM
Nc1nc2ccc(S(=O)(=O)c3ccncc3)cc2s1 | swarming area, modified FAB agar | PA14-lux | 200 µM, 24 h | baseline: DMSO vehicle | inhibition | -8.36%
CN[C@H](CC(C)C)C(=O)N[C@H]1C(=O)N[C@@H](CC(N)=O)C(=O)N[C@H]2C(=O)N[C@H]3C(=O)N[C@H](C(=O)N[C@H](C(=O)NCc4cn(CCCCC(=O)N[C@H](C(=O)N[C@@H](CCN)C(=O)N[C@H]5CCNC(=O)[C@H]([C@@H](C)O)NC(=O)[C@H](CCN)NC(=O)[C@H](CCN)NC(=O)[C@H](CC(C)C)NC(=O)[C@@H](CC(C)C)NC(=O)[C@H](CCN)NC5=O)[C@@H](C)O)nn4)c4cc(O)cc(O)c4-c4cc3ccc4O)[C@H](O)c3ccc(c(Cl)c3)Oc3cc2cc(c3O[C@@H]2O[C@H](CO)[C@@H](O)[C@H](O)[C@H]2O[C@H]2C[C@](C)(N)[C@H](O)[C@H](C)O2)Oc2ccc(cc2Cl)[C@H]1O | broth microdilution | ATCC 25922, cation-adjusted Mueller-Hinton broth | – | – | MIC | 6 µM
Nc1nc2ccc(Oc3cc[nH]c(=O)c3)cc2s1 | pyocyanin production | PA14-lux | 200 µM, 18 h | baseline: DMSO vehicle | inhibition | 21%

A few entries again:
SMILES | test | test system | conditions | scale | endpoint | value
CC[C@H](C)[C@H](NC(=O)[C@H](CCCNC(=N)N)NC(=O)[C@H](CO)NC(=O)[C@H](Cc1ccc(O)cc1)NC(=O)[C@@H](NC(=O)[C@@H](NC(=O)[C@H](C)NC(=O)CNC(=O)[C@H](CCCCN)NC(=O)[C@H](CCCCN)NC(=O)CCNC(=O)CCCCCNC(=O)[C@H](CCCNC(=N)N)NC(=O)CCCCCNC(=O)[C@H](CCCNC(=N)N)NC(=O)[C@H](CCCNC(=N)N)NC(=O)CCCCCNC(=O)[C@H](CCCNC(=N)N)NC(=O)[C@H](CCCNC(=N)N)NC(=O)CCCCCNC(=O)[C@H](CCCNC(=N)N)NC(=O)[C@H](CCCNC(=N)N)NC(=O)CCCCCNC(=O)[C@@H](N)CCCNC(=N)N)C(C)C)[C@@H](C)O)C(=O)N[C@@H](CO)C(=O)NCC(=O)N[C@@H](CCC(N)=O)C(=O)N[C@@H](Cc1ccc(O)cc1)C(=O)N[C@@H](CCCCN)C(=O)O | biofilm formation, crystal violet staining | ATCC 27853, Mueller-Hinton broth | 24 h, 37 °C, polypropylene plate | – | MBIC50 | 48 µM
CC(C)[C@H]1NC(=O)[C@H](Cc2ccccc2)NC(=O)[C@@H](C(C)C)NC(=O)[C@@H](C)NC(=O)[C@H](CO)NC(=O)[C@@H](Cc2c(-c3ccc(-c4ccccc4)c4ccccc34)[nH]c3ccccc23)NC(=O)[C@@H](CO)NC1=O | broth dilution | – | – | – | MIC90 | > 50 µM
Nc1nc2ccc(Oc3ccncc3)cc2s1 | swarming area, modified FAB agar | PA14-lux | 200 µM, 24 h | baseline: DMSO vehicle | inhibition | 40%
CC(C)C[C@H](NC(=O)[C@H](CC(C)C)NC(=O)[C@H](CCCCN)NC(=O)[C@H](Cc1ccccc1)NC(=O)[C@@H](NC(=O)[C@H](CCCNC(=N)N)NC(=O)[C@@H](N)CCCCN)C(C)C)C(=O)N[C@@H](CCCCN)C(=O)N[C@@H](CCCNC(=N)N)C(=O)N[C@@H](Cc1ccc(O)cc1)C(=O)N[C@@H](Cc1c[nH]c2ccccc12)C(=O)N[C@@H](CCCNC(=N)N)C(=O)N[C@@H](CCC(N)=O)C(=O)N[C@@H](CC(C)C)C(=O)N[C@@H](CCCCN)C(=O)N[C@@H](CCCCN)C(=O)N1CCC[C@H]1C(=O)N[C@H](C(=O)N[C@@H](CCCNC(=N)N)C(=O)NCCOCCOCC(=O)O)C(C)C | DCFH-DA fluorescence | – | concentration not given | baseline: untreated | ROS level | 10 to 12 fold
